Results pooled from the literature.
Parts stem from different laboratories: compare values within a part only. Positions count from the first letter of the parent shown.

Block 1 — technique: RNA Bind-n-Seq; form: RNA; sample: in vitro; concentration: 20 nM; setting: 6-mer, flanks averaged, single round; added: 150 mM LiCl; baseline: input library; reading: higher = stronger binding; measurement: 6-mer enrichment (R)
Target: TAR DNA-binding protein 43, full length, His tag (TARDBP, Homo sapiens, UniProt Q13148, residues 1-414)
CCAAUA: 0.92
AGUUGU: 1.17
GGCUAC: 0.876
UAGGCU: 0.904
UGACCG: 0.897
GAACCA: 0.873
AACGAU: 0.783
UGCUUG: 1.16

Block 2 — technique: aptamer microarray, sandwich; form: DNA with 2'F-ANA; sample: in vitro; concentration: 200 nM; added: Cy3 exosite-II aptamer, 400 nM; reading: higher = stronger binding; measurement: mean fluorescence intensity; sequence: GGTTGGTGTGGTTGG
Target: Prothrombin, mature alpha-thrombin (F2, Homo sapiens, UniProt P00734)
Setting: whole 15-mer aptamer, many near background
2'F-ANA at 1 3 4 11 12 14 15: 173 a.u.
2'F-ANA at 2 4 5 7 8 9 11 14: 46.8 a.u.
2'F-ANA at 1 4 6 7 8 11 12 14: 59.3 a.u.
2'F-ANA at 2 4 5 7 8 9 10 12: 52.1 a.u.
2'F-ANA at 1 4 6 7 9 11 14 15: 55.5 a.u.
2'F-ANA at 3 4 6 7 8: 789 a.u.
2'F-ANA at 1 2 4 6 8 10 12 14 15: 50.8 a.u.
2'F-ANA at 1 3 4 5 8 13 15: 50.2 a.u.

Block 3 — target: CCNA2, cyclin fold, Cln2 fusion (human); technique: yeast growth competition, sequencing; sample: yeast; setting: strong parent motif; baseline: not given; reading: higher = stronger binding; measurement: normalised enrichment score
Starting sequence: viral docking peptide; TSVRRALFTGGSD; partner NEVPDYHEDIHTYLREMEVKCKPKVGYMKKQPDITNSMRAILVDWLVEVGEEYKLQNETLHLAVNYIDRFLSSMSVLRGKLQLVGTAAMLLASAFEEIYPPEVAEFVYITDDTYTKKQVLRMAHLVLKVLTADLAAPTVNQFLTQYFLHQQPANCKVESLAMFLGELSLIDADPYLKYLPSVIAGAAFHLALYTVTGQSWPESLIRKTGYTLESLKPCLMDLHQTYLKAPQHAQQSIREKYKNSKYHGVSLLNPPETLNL
TSVRRALFTGGFD [S12F]: 5.85
TSVRRALFTPGSD [G10P]: 5.95
TSVRRALFTGKSD [G11K]: 6.27
TIVRRALFTGGSD [S2I]: 5.2
TSVRRALFTGGID [S12I]: 6.14
TSVIRALFTGGSD [R4I]: 2.55
TSVRRALFTGTSD [G11T]: 6.57
TSVCRALFTGGSD [R4C]: 4.54
TSVRRALFTLGSD [G10L]: 6.08
TQVRRALFTGGSD [S2Q]: 5.89
TPVRRALFTGGSD [S2P]: 5.99
TSVRRALFDGGSD [T9D]: 5.78
TSLRRALFTGGSD [V3L]: 1.66
TSPRRALFTGGSD [V3P]: 2.62
TSVHRALFTGGSD [R4H]: 1.73
TSVFRALFTGGSD [R4F]: 1.8
TSGRRALFTGGSD [V3G]: 1.33
TSVPRALFTGGSD [R4P]: 1.52
TSVRRALFVGGSD [T9V]: 6.52
TWVRRALFTGGSD [S2W]: 4.3
TSVRRALFTGASD [G11A]: 6.07
TMVRRALFTGGSD [S2M]: 5.93
TSVNRALFTGGSD [R4N]: 3.15
TSVRRALQTGGSD [F8Q]: 0.59
TSVRRALFTGCSD [G11C]: 6.2

Block 4 — target: tungstate, free oxyanion; technique: microfluidic competitive inhibition; sample: in vitro, cell-free expressed; concentration: not given; reading: lower = stronger binding; measurement: oxyanion analog dissociation constant
Setting: derived from inhibition constants, unchanged parent 2230 nM
Starting sequence: PafA, mature enzyme, eGFP fusion (Elizabethkingia meningoseptica, UniProt Q9KJX5); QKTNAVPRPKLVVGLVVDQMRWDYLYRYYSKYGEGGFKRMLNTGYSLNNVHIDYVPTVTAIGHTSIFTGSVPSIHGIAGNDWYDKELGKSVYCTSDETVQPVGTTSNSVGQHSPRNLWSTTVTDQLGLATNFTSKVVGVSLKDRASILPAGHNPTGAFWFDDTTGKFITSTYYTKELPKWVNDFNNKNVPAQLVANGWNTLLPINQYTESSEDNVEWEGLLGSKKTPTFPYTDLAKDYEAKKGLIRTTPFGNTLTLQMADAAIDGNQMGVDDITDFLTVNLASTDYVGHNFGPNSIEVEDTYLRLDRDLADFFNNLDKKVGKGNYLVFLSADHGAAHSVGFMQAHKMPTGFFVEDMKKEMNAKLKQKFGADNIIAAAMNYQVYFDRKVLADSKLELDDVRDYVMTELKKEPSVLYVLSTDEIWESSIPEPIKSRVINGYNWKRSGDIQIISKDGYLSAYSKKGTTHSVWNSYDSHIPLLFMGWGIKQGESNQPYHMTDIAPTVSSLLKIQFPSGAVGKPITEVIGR
A362G: 2.23 µM
D23G: 1.32 µM
P72G: 1.23 µM
V91G: 10.7 µM
D453G: 1.92 µM

Block 5 — observed: binding; technique: phage display NGS; form: peptide; concentration: concentration not given; setting: normalized abundance; baseline: input library; measurement: enrichment fold change
Target: UDP-N-acetylglucosamine--peptide N-acetylglucosaminyltransferase 110 kDa subunit (OGT, Homo sapiens, UniProt O15294)
Sequence of UniProt O15294 (whole entry, looked up): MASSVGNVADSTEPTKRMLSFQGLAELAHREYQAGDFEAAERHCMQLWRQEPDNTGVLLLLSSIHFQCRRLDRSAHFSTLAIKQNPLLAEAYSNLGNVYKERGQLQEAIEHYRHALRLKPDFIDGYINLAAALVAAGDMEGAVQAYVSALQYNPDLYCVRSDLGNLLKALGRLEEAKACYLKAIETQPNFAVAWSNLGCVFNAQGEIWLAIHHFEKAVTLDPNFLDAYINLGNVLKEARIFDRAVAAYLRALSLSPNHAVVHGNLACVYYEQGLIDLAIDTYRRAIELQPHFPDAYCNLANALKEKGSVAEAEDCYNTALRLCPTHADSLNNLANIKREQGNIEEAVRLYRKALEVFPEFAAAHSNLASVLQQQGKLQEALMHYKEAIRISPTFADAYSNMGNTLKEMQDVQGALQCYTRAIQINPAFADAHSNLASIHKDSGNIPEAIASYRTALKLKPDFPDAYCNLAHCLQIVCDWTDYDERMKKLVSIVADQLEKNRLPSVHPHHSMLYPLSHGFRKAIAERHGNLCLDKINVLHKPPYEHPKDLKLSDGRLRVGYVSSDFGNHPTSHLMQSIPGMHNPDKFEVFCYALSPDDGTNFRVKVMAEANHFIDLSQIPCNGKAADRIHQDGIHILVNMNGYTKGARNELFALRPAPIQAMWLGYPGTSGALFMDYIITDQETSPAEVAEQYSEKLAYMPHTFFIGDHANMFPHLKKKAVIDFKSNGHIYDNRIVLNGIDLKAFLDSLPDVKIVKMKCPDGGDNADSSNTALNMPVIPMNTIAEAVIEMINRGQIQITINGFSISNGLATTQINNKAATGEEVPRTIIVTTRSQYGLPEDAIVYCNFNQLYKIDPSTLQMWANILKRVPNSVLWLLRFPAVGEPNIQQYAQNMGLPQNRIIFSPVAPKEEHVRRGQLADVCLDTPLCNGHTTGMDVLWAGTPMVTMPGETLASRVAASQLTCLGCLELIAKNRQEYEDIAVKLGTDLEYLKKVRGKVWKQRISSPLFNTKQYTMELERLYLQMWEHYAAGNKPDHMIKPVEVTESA
QELFSHRMRFEQHHH: 69
DTYEPVYQITPRADT: 4.26
VEQSSPFAPQYQIQM: 20.2
HILVPMRPMTHHHAV: 8.38

Repeated from above (block 3):
TSVFRALFTGGSD [R4F]: 1.8
TSVNRALFTGGSD [R4N]: 3.15
TSVIRALFTGGSD [R4I]: 2.55
